Results of several laboratories.
Each line is one published result; not all experiments were run side by side.

Under “time to non-quantifiable plasma level”, `CO[C@@H]1[C@H](OC(=O)N2CC(CCN3CCOCC3)C2)CC[C@]2(CO2)[C@H]1[C@@]1(C)O[C@@H]1CC=C(C)C` is recorded as ≤ 4 h (human, plasma; subcutaneous, 0.2 mg, single dose).
`CNC(=O)c1cc(Oc2ccc(NC(=O)Nc3ccc(Cl)c(C(F)(F)F)c3)cc2)ccn1` — result for “time to second Cmax”: 8 to 24 h (human; dose not given, most patients).
For `C[C@H]1CO[C@@H]2Cn3cc(C(=O)NCc4ccc(F)cc4F)c(=O)c(O)c3C(=O)N12`, “time to injection-site reaction onset” read 1 days (human patients, all-treated set; intramuscular, dose not given, long-acting injection with rilpivirine LA, median).
For `CN[C@@H]1COc2c(S(=O)(=O)NC(=O)Nc3c4c(cc5c3CCC5)CCC4)cnn2C1`, “time to resolution of liver injury” read ≤ 87 days (human; oral, dose not given).
`C[C@@H](N)C1CCN(S(=O)(=O)c2cccc3c(=O)[nH]ccc23)CC1`: “time quantifiable in plasma” ≤ 48 h (human, plasma; oral, 25 to 250 mg, fasted).
`C=CC(=O)NC1CCN(c2ncc3ncnc(Nc4ccc(Oc5ccc6c(c5)ncn6C)c(C)c4)c3n2)CC1` — result for “time quantifiable in plasma”: ≤ 120 h (human, male, plasma; oral, 240 mg, fed and fasted; up to).
Under “time to steady state”, `O=C(O)CCC(=O)O.[2H]C([2H])([2H])Oc1cc(C)c2[nH]ccc2c1CN1CC[C@@H](C2CC2)C[C@H]1c1ccc(C(=O)O)cc1` is recorded as ~7 days (human, plasma; multiple ascending dose).
`NC(=S)NN=Cc1ncccc1N`: “time above active level” 2 to 6 h (human, plasma; oral, dose not given).
`CNC(=O)NC1CCC(CCN2CCN(c3cccc(Cl)c3Cl)CC2)CC1` (centres unmarked) — result for “time to steady state”: ≤ 28 days (human; dose not given, cariprazine alone).
`CCCCCCCCCCCCCCCC(=O)N[C@@H](CCC(=O)NCCCC[C@@H]1NC(=O)[C@H]([C@@H](C)CC)NC(=O)[C@@H](NC(=O)[C@@H]2CCCN2C(=O)[C@H](Cc2ccccc2)NC(=O)[C@H](Cc2c[nH]cn2)NC(=O)[C@@H](NC(=O)[C@H](CC(=O)O)NC(=O)CC(C)C)[C@@H](C)O)CSSC[C@@H](C(=O)N[C@@H](CCCCN)C(N)=O)NC(=O)CNC(=O)[C@H](CCCCN)NC(=O)[C@H](CO)NC(=O)[C@H](CCCNC(=N)N)NC(=O)[C@@H]2CCCN2C(=O)[C@H](CCC(=O)O)NC(=O)[C@H](Cc2ccccc2)NC1=O)C(=O)O`: “time of first detected concentration” ≤ 1 h (healthy human, plasma; subcutaneous, dose not given, first sampling 1 h).
For `C[C@@H](N)C1CCN(S(=O)(=O)c2cccc3cnccc23)CC1`, “time quantifiable in plasma” read ≤ 12 h (human, plasma; oral, 150 mg, fed).
`CC(=O)N(C)[C@H]1CCN(C(=O)c2cnc3c(c2)C[C@](C)(c2ccc(F)cc2)N3)C1` — result for “time for most urinary excretion”: ≤ 24 h (male humans, urine; oral, dose not given).
Under “time quantifiable in plasma”, `CN1C(=O)[C@@H](NC(=O)c2nnc(Cc3ccccc3)[nH]2)COc2cccnc21` is recorded as ≤ 48 h (human, both sexes, plasma; oral, 10 mg single).
`NC(=O)NC1CCC(CCN2CCN(c3cccc(Cl)c3Cl)CC2)CC1` (centres unmarked): “time to steady state” ≤ 28 days (human; dose not given, cariprazine alone).
